Measurements pooled from the literature.
Every numbered part comes from another study and shows a few of its results, in no order.

Study 1 — method: RNA Bind-n-Seq; molecule type: RNA; matrix: in vitro; tested at: 365 nM; relative to: no-protein control; reading: higher = stronger binding
Target: RNA binding protein fox-1 homolog 2, RRM domain, GST-SBP tag (RBFOX2, Homo sapiens, UniProt O43251-10, residues 100-194)
Notes: natural RNA segment, single round, ends assumed
All sequences stand within: GGGAGUUCUACAGUCCGACGAUC … UGGAAUUCUCGGGUGCCAA
Construct (chain): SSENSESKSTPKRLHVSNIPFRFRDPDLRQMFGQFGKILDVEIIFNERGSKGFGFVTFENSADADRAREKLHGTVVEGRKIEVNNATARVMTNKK
Under “RBNS enrichment (R)”, `AACAGUGUUGCUGUGACUUCAGAGACAAGCCUGGAAGGGGCACCUUAGGAAGCCCCUUCGCUUCAGUUGCUCGCUUCUGGGUGUGCUCCCUUCGAAGGCCCAGAUAAGAC` is recorded as 0.257.
Under “RBNS enrichment (R)”, `AGGUGGGUGUGGCCUGUGUUUUCCCUUCUGUUCUUUCUGCCUGUACUGGAUCUGUUAUUUUCAGGGAAACAGGCCCCAGGGCCCCCCUGAGCCUCACCCUAAGCCCUUAG` is recorded as 1.98.
`UCAUCAAUUUUUCUGACUUUUUAAAUCAUUAUCAUUAUUAUUUUUAAUUAAAAAAAUGCCUGUAUGCCUUUUUUUGGUCGGAUUGUAAAUAAAUAUACCAUUGUCCUACU`: “RBNS enrichment (R)” 0.743.
For `AGAUCUGAUGCAGUCAUCUGUGUCCCCCAACCAAAGCCCAUUUGGGUCUGAGGGUUCCAGCGUAAAUGCCUGCCCUGCAGCGCCUGGCAACUGGCAAGCAUCGGGUCUGA`, “RBNS enrichment (R)” read 0.269.
Under “RBNS enrichment (R)”, `UAUUUUGUUUGUUUCUCAAGUGACUUGUGGACUUGUGCUGUAUAAACUGUAUUAAAAAGGCUCUGUUUUUAAAGAUCAAUUGUCAUUCCUGUGGGGACAGUGGCUACUGA` is recorded as 0.789.
For `UAAUCUUUCUGUAAGCCUCUCAAGUACUGGGAUUACAGGCAUGAACCACCAUGCCUAUAGCCACAGCAACCCAUUCUUUUGGAGGUUUUAUAGUUCUCCAUUUGUCUCAU`, “RBNS enrichment (R)” read 0.304.
For `CAGCCACUUGGCUGGGCAGGGAGAUAGAUAGCUUCUUCCUGCAAGCUUCCAGAAGCACGCUGUGUUCUUUUUGCCAAAUAUGUUCAGUUAUAGUCAGCUGAUAGAUUGAU`, “RBNS enrichment (R)” read 0.557.
`CAUUUUCCAGGGGGUUUAUGGUCAGGGCUCCCCAACCUGAGUUGGGCUACUUCCAAGGGCAGCCAGCAGGCCUGGACAGAGGUCUUGAAAGCCCUUGUCUUCUCUUCCCC`: “RBNS enrichment (R)” 0.409.
`UUCUGUGUGAGUAAACCGAGAGUUACCAUGUGGCCUCCUUGUGUCUAAAUGUUCCCUCUGUUCAGCUUAGCAACCCUCCCCCCUUUGCUAUGUAACGCGAUCCCAUUUGC` — result for “RBNS enrichment (R)”: 0.56.
`UGAAUAAUGUUUACAUUCGUCCCCCGGGGAAAUGUAUGCUCAGCCACCAUUCAAGAGAUGACUGAGAAGGAGAUGGUAAGUUCAAGAAGACUGAUUGCACCUGGGACCCA`: “RBNS enrichment (R)” 1.93.
`GCCUCCAUCACCACAACCACACCGCUUCGCUCUGCCAUCCACCCACCGCAGCAGCAUCUUCAAGAAUAAAGCAAUAUAGUUUACUACAUUUUUUUUUAAAAUUGAAGGUC` — result for “RBNS enrichment (R)”: 0.849.
`GAGGCACAGCUUAGAUGUUUUGUACACCUGGUCUUUUCUAGAAAUCCCUGCUUGGAGCUGCAGAAGGGUUGCCUUCUGUAGGUCGGAGGAAUGGAGGCUUACUAACCAGG`: “RBNS enrichment (R)” 0.281.

Study 2 — method: RNA Bind-n-Seq; molecule type: RNA; matrix: in vitro; tested at: not given; relative to: input RNA pool; reading: higher = stronger binding
Target: RING finger protein unkempt homolog, zinc fingers 1-6, GST-SBP tag (UNK, Homo sapiens, UniProt Q9C0B0, residues 30-357)
Notes: RNA with constant flanks, human and mouse sites, ends assumed
All sequences stand within: GGGAGUUCUACAGUCCGACGAUC … CAACAGAGGAUUGAGCAUCA
Construct (chain): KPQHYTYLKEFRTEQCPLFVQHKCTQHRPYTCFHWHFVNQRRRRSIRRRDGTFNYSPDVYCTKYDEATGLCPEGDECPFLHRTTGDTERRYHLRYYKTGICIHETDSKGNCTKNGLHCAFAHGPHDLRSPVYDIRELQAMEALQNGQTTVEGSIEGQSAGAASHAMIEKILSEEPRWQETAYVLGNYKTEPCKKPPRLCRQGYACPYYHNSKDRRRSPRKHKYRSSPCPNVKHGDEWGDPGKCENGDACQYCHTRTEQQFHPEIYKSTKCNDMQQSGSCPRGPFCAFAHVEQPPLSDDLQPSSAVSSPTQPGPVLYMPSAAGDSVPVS
For `UCCACCAGUGAUGCCUUCUGGAAAUCACCAAAUUCCUCGUCGAGGAUUUCACCCCUAGUGUUGUUUUCCAAUUUGCCUGUGAACCAUAAAAUGGAGCACAAUAAUAAUGACACUCAACAG`, the bound/input enrichment was 0.168 ratio.
The bound/input enrichment of `UCAAAAACUGGAGGCUCCUACGGUACUACAUGGGGUGCCUAUGGUUCUAAUUACUCUGGCGACAAAUGUGCAGGCCCUAAUGGCCAAGCCAAUGGUGACACUGUGAAUGCAACUCUAAUG` is reported as 0.119 ratio.
`UCUGUAGGAUGGCCAGCAUCCCGUGGUCCCUUUCAGCUGCUCAGUGCAUCCCUUGCAUCAUUAGUACCCUGUCUUGACAGCUUGAGGUCCUGGCAGUCUAUGUUUGCCCUUUGCUCAGGG` has a bound/input enrichment of 0.185 ratio.
With `ACCUUUGUGGACAAGGAUUUUGUACCAUAUCAAGAUAUAAGGAUAAAUCAUACAGUGAUUUUAGAUGAUCCAUUUGAUGACCCUCCUGAUUUAUUAAUUCCUGAUCGAUCACCCGAGCCU` the bound/input enrichment was 0.13 ratio.
For `UCUCCAAAAUCUGAUAUCUCUCCACUCACCCCACGAGAGUCCUCUCCUUUAUAUUCACCUACUUUUUCAGAUUCUACCUCUGCAGUCAAAGAGAAAACAGCAACUUGCCACAGUUCCUCU`, the bound/input enrichment was 0.603 ratio.
For `AGAUCCGCUGCUGCCGAGGAGAGGAGCGUCAACUGCGGCACCAUGGUAGCUCAACCGAAGAACCUUGAGGGCUAUGUGGGCUUUGCCAACCUCCCAAAUCAAGUGUACAGAAAAUCCGUG`, the bound/input enrichment was 0.265 ratio.
The bound/input enrichment of `CAGGGCAGCACCACCCCCUCCUCCUUCUUUCCACACCUGCAAACCCUUUUGCCUGGGCUGCAUAGUUAGUGUUAAUUACAUCGCAGCUUUGAGGGCUCCUGUGGCAAAUACCCGGAUUAA` is reported as 0.461 ratio.
With `AGGCCCCAGGCCCAACCAAAAGAGGCCUGGAGCCUGUCGGACUCUUGCCAACCUCCUGUGUCUCAGAGAACAGUGCAUACCACGUUACCAUCUCCUUCAGAUUCGAGCCACUGUAAUGCG` the bound/input enrichment was 0.0695 ratio.
The bound/input enrichment of `AAGUCCAGAGGAAAAGAACCCAACUGAGUGCAUGCCAGUUCAGAGUACAGACUUCUCACCUUGACGUUUUUACACAUGAACUUCCAAGAAUUUGGGAUCCAAGUUGUUUAUAUAAUAAUG` is reported as 0.121 ratio.
`AGCUCUCCGUGCAUUCACUACUUCACUGGAACCCCUGAUCCUUCCAGGUCCAUAUUCAAGCCUUUCAUCUUUGUUGAUGACGUAAAACUUGUCCCCAAAACACAGUCUCCCUGUUUUGGG` gave a bound/input enrichment of 0.404 ratio.
For `AUCUUUAUCUCACAAGAUGAAAUACAGUCAUUUAUGGCUAAUAACCAGUCUUUCUACAGCAAUAGAGAACAAUACCGACAGCAUCUGAAGGAGAAAUUUAAUAAAUACUGCCGGUUAAAU`, the bound/input enrichment was 0.195 ratio.

Study 3 — method: protein-binding microarray; molecule type: double-stranded DNA, one strand shown; matrix: in vitro; tested at: 2200 nM top; notes: 60-bp whole probe; added: salmon DNA 0.4 mg/ml; relative to: random background probes; reading: higher = stronger binding; all sequences stand within: GCCTAGCAC … GTCTTGATTCGCTTGACGCTGCTG
Target: Interferon regulatory factor 7, full length, phosphomimetic (IRF7, Homo sapiens, UniProt Q92985, residues 1-503, S471D/S472D/S475D/S476D/S477D/S483D/S484D/S487D)
Chain of UniProt Q92985 (whole entry, unmodified, looked up): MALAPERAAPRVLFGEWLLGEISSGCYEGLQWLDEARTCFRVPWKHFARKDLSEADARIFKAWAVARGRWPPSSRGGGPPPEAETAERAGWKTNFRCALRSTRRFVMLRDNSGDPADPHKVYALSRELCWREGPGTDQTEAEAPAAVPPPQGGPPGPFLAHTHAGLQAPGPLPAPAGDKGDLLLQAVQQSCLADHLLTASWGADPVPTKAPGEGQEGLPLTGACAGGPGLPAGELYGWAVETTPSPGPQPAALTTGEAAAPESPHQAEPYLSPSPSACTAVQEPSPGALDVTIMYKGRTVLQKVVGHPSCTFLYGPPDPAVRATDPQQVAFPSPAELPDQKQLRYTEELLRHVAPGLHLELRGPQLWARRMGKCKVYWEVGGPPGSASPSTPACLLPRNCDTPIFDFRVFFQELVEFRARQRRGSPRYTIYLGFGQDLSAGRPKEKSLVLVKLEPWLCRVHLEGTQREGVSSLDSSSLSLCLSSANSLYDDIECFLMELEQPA
For `TCATTCATGAAGTTTTAAACTGTGCTA`, “fitted relative affinity” read -0.194 z-score.
For `TTAGATCTCAGTATCGGTTAGTGCTAG`, “fitted relative affinity” read 0.512 z-score.
Under “fitted relative affinity”, `TTAGATATCTGGTATCGATTAGTGCTA` is recorded as 0.191 z-score.
`TTTCTAATGTTTTTTAAAGTGTGCTAG` — result for “fitted relative affinity”: 1.44 z-score.
`CTTTGCCTCATCTTGCAGGTAGTGCTA`: “fitted relative affinity” 0.865 z-score.
`TCAATTCTCTACTTGTGACTGTGCTAG` — result for “fitted relative affinity”: 1.1 z-score.
`TCACAATTCTTTTTATGACTGTGCTAG`: “fitted relative affinity” 0.772 z-score.
For `TTAGATTCCCTTTTCCTTTAGTGCTAG`, “fitted relative affinity” read 3.41 z-score.
Under “fitted relative affinity”, `TCTATAATGGATATATATCAGTGCTAG` is recorded as 0.199 z-score.
`GACGGTATCGACACTGGTGACGTGCTA` — result for “fitted relative affinity”: -0.201 z-score.
`GATGGTCTCCTACTGCTGACGTGCTAG`: “fitted relative affinity” 0.625 z-score.
`GACGGACTGCGACTGCTGACGTGCTAG`: “fitted relative affinity” -0.601 z-score.
`GCTGTCATCGATTTCTTCCCGTGCTAG`: “fitted relative affinity” 2.15 z-score.
For `TTCATTTTCTTTAACTCATTGTGCTAG`, “fitted relative affinity” read 1.8 z-score.
Under “fitted relative affinity”, `GATGATATCAGACTGGAGACGTGCTAG` is recorded as -0.00469 z-score.
`GCCGGTTTCGGTTTCGGGACGTGCTAG`: “fitted relative affinity” 16.5 z-score.
For `CTTGTTCTTAGCTTGGGTCTGTGCTAG`, “fitted relative affinity” read 1.1 z-score.
`GACGGTTTCCTTCTCCTGTCGTGCTAG` — result for “fitted relative affinity”: 3.59 z-score.
For `TTAGATTTCGGGTATCTATTAGTGCTA`, “fitted relative affinity” read 2.68 z-score.
For `TCATTTTTCACCTGCACACTGTGCTAG`, “fitted relative affinity” read 2.93 z-score.
`TTAGATTTCAGTTTCGATTGGTGCTAG`: “fitted relative affinity” 10.6 z-score.
`TGAACTAGCGGGTCTTGCAGTGTGCTA` — result for “fitted relative affinity”: -0.6 z-score.
For `TTAGGTATCCTCTTCCTTTAGTGCTAG`, “fitted relative affinity” read 1.43 z-score.
`TTTCCTTTACATTCCCCATTGTGCTAG` — result for “fitted relative affinity”: 4.96 z-score.

Study 4 — method: protein binding microarray; molecule type: double-stranded DNA, one strand shown; matrix: in vitro; tested at: not given; relative to: not given; reading: higher = stronger binding
Target: Histone acetyltransferase KAT6A, both winged helices, GST fusion (KAT6A, Homo sapiens, UniProt Q92794, residues 1-181)
Notes: 8-mer, flanks averaged, mean of 2 arrays, mostly near background
Residues (chain): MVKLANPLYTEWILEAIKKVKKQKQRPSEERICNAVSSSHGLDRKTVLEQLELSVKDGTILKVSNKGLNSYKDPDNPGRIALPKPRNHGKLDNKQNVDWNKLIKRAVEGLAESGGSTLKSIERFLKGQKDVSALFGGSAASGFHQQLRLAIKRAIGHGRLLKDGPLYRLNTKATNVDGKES
`GCCACCCA` gave an E-score of -0.211.
For `GAGTTTAA`, the E-score was -0.0668.
With `GCCAGTAC` the E-score was -0.155.
For `CACCTCTA`, the E-score was -0.112.
`CCACAGGC` gave an E-score of -0.214.
For `AACCAACC`, the E-score was -0.166.
`GAGAGACC` gave an E-score of -0.104.
With `AGTACGAA` the E-score was -0.0502.
The E-score of `GGGGGAGA` is reported as -0.288.
`ATCTATTG` has an E-score of -0.136.
For `GTATGACA`, the E-score was 0.0176.
`ATCGCAAA` has an E-score of 0.108.
For `AAACTAGT`, the E-score was -0.114.
`ACATCATG` gave an E-score of -0.0556.
`CGTAGCTC` has an E-score of 0.119.
The E-score of `CCCGACTC` is reported as 0.0439.
`CTGTAGCA` has an E-score of -0.152.
`ACTCGTGC` has an E-score of 0.0436.
The E-score of `ACTGTAGA` is reported as -0.207.

For quick reference, copied from above (study 3):
`CTTTGCCTCATCTTGCAGGTAGTGCTA`: “fitted relative affinity” 0.865 z-score.
For `TTAGATCTCAGTATCGGTTAGTGCTAG`, “fitted relative affinity” read 0.512 z-score.
For `CTTGTTCTTAGCTTGGGTCTGTGCTAG`, “fitted relative affinity” read 1.1 z-score.
Under “fitted relative affinity”, `GATGATATCAGACTGGAGACGTGCTAG` is recorded as -0.00469 z-score.
`GCTGTCATCGATTTCTTCCCGTGCTAG`: “fitted relative affinity” 2.15 z-score.
For `TCATTCATGAAGTTTTAAACTGTGCTA`, “fitted relative affinity” read -0.194 z-score.
For `TTAGATTTCGGGTATCTATTAGTGCTA`, “fitted relative affinity” read 2.68 z-score.
Under “fitted relative affinity”, `TTAGATATCTGGTATCGATTAGTGCTA` is recorded as 0.191 z-score.
`TCAATTCTCTACTTGTGACTGTGCTAG` — result for “fitted relative affinity”: 1.1 z-score.
`TTTCCTTTACATTCCCCATTGTGCTAG` — result for “fitted relative affinity”: 4.96 z-score.
For `TTCATTTTCTTTAACTCATTGTGCTAG`, “fitted relative affinity” read 1.8 z-score.
